Measured values gathered from unrelated publications.
± marks the error that the study gave. ≈ marks a conversion by molar mass, not a printed value.
Organism: Candida albicans

`Fc1cccc(N/N=C/c2ccc(-c3cccc(/C=N/Nc4cccc(F)c4)c3)cc2)c1` has a selectivity index of under 0.4 (ATCC MYA-2310 susceptible; relative to: mammalian CC50 over MIC).
`O=C1/C(=C/c2ccc3ccccc3c2O)NC(=S)N1c1ccccc1` — result for “inhibition zone diameter”: 25 ± 0.82 mm (ATCC 10231; concentration not given).
`OC(Cn1cncn1)(Cn1cncn1)c1ccc(F)cc1F` gave an MIC of 16 µM (SP3902, RPMI MOPS; 48 h, 37 °C).
For `C(=N\Nc1ccccc1)/c1ccc(-c2ccc(/C=N/Nc3ccccc3)cc2)cc1`, the selectivity index was under 0.6 (ATCC MYA-2876 susceptible; relative to: mammalian CC50 over MIC).
`OC(Cn1cncn1)(Cn1cncn1)c1ccc(F)cc1F` has an MIC of 1 µg/mL (broth microdilution; 30; 24 h, compound alone).
Under “inhibition zone diameter”, `COc1ccc(/C=C2\NC(=S)N(c3ccccc3)C2=O)c(OC)c1` is recorded as 11 ± 0.5 mm (ATCC 10231; concentration not given).
For `CC(=O)C1=NN(c2ccc([N+](=O)[O-])cc2)C(=C(C#N)C(=O)c2ccc(Nc3cnccn3)cc2)S1`, “inhibition zone diameter” read 46 mm (ATCC 10231; concentration not given).
For `CC(C)c1ccc(/C=C2\N=C(SCC(=O)c3ccccc3)N(c3ccccc3)C2=O)cc1`, “inhibition zone diameter” read 12 ± 0.05 mm (ATCC 10231; concentration not given).
`CCCCCOc1ccc(-c2ccc(-c3ccc(C(=O)N[C@H]4C[C@@H](O)[C@@H](OCC[N+](C)(C)C)NC(=O)[C@@H]5[C@@H](O)[C@@H](C)CN5C(=O)[C@H]([C@@H](C)O)NC(=O)[C@H]([C@H](O)[C@@H](O)c5ccc(O)cc5)NC(=O)[C@@H]5C[C@@H](O)CN5C(=O)[C@H]([C@@H](C)O)NC4=O)cc3)cc2)cc1`: “free AUC/MIC for 1-log kill” 6.4 (98-17, neutropenic mice, disseminated candidiasis; dose not given, 24 h AUC over 7 days).
With `C[C@@H]1[C@H](O)[C@@H](C)/C=C/C=C/C=C/C=C/C=C/C=C/C=C/[C@H](O[C@@H]2O[C@H](C)[C@@H](O)[C@H](N)[C@@H]2O)C[C@@H]2O[C@](O)(C[C@@H](O)C[C@@H](O)[C@H](O)CC[C@@H](O)C[C@@H](O)CC(=O)O[C@H]1C)C[C@H](O)[C@H]2C(=O)O` the MIC was 0.5 µM (SP3902, RPMI MOPS; 48 h, 37 °C).
The MIC50 of `OC(Cn1cncn1)(Cn1cncn1)c1ccc(F)cc1F` is reported as 0.4 µM (≈ 0.123 µg/mL) (EUCAST; 48 h).
`CC(C)c1ccc(/C=C2\N=C(SCc3ccc([N+](=O)[O-])cc3)N(c3ccccc3)C2=O)cc1` — result for “inhibition zone diameter”: 11 ± 0.47 mm (ATCC 10231; concentration not given).
`Cl.Oc1cccc2c1[nH]c1c(C3=CC4(O)CC/C=C\CCCCN5CCC3C3(CC6/C=C\CCCCN6C43)C5)nccc12` (single isomer, unassigned; (+)) gave an IC50 of 3 ± 0.01 µg/mL (growth; ATCC 90028).
For `C[C@@H]1[C@H](O)[C@@H](C)/C=C/C=C/C=C/C=C/C=C/C=C/C=C/[C@H](O[C@@H]2O[C@H](C)[C@@H](O)[C@H](N)[C@@H]2O)C[C@@H]2O[C@](O)(C[C@@H](O)C[C@@H](O)[C@H](O)CC[C@@H](O)C[C@@H](O)CC(=O)O[C@H]1C)C[C@H](O)[C@H]2C(=O)O`, “amount bound to cells” read 8.7 pg (LC-MS; 63 µg/mL, 1 h, 35 °C).
The MIC90 of `O=c1c2cc(Cl)ccc2[nH]c(=S)n1Cc1cccnc1` is reported as over 100 µM.
`Fc1ccccc1N/N=C/c1ccc(-c2cccc(/C=N/Nc3ccccc3F)c2)cc1` has a selectivity index of under 0.5 (ATCC MYA-1237 resistant; relative to: mammalian CC50 over MIC).
`OC(Cn1cncn1)(Cn1cncn1)c1ccc(F)cc1F`: “biofilm mass reduction” 65 to 68% (XTT, preformed biofilm; ATCC 60193; 2 × MIC, 24 h).
With `CC(=O)ON=C1C=CC(=C(C#N)c2ccccc2)C=C1` the effective concentration was 0.5 µg/mL (mature biofilm disaggregation, crystal violet; at MIC/4).
Under “inhibition zone diameter”, `CC(C)c1ccc(/C=C2\NC(=S)N(c3ccccc3)C2=O)cc1` is recorded as 12 ± 0.16 mm (ATCC 10231; concentration not given).
